{"data": "Published values collected from several papers", "note": "Protocols differ between the studies behind these lines. Values joined by “and” are separate records of one study, mostly repeats; a detail may differ. ± gives the spread as reported."}
{"SMILES": "CNCc1cc(-c2ccccc2F)n(S(=O)(=O)c2cccnc2)c1", "assay": "basal gastric acid secretion", "system": "pylorus-ligated rat", "setting": "oral, 2 mg/kg", "quantity": "inhibition", "result": "66.9%"}
{"SMILES": "CCN1CCN(Cc2ccc(Nc3ncc(F)c(-c4cc(F)c5nc6n(c5c4)[C@H](C)CCC6)n3)nc2)CC1", "system": "human advanced solid tumours", "setting": "500 mg, phase Ia monotherapy RECIST 1.1", "quantity": "not evaluable response", "result": "0%"}
{"SMILES": "Cc1ccc(NC(=O)c2ccnc(C(F)(F)F)c2)cc1-c1cc(OCCO)nc(N2CCOCC2)c1", "system": "MAPK-altered advanced solid tumour patients", "setting": "dose not given, single-agent dose escalation", "quantity": "best overall response unknown", "result": "21.8%"}
{"SMILES": "CC(C)NCC(O)c1ccc(O)c(O)c1 (stereo not drawn)", "system": "ventricular cardiomyocytes, C57BL/6 mouse", "setting": "dose not given, 0.524 s", "quantity": "sarcomere length", "result": "1.49 µm"}
{"SMILES": "CCc1ccc(CCOc2ccc(CC3SC(=O)NC3=O)cc2)nc1 (stereo not drawn)", "assay": "deuterium-hydrogen exchange", "system": "aqueous phosphate buffer", "setting": "pH 7.4, 37 °C", "quantity": "exchange rate constant", "result": "-0.155 h⁻¹"}
{"SMILES": "Cn1cc(Nc2nccc(-c3ccc4c(c3)CN(C3COC3)CC[C@H]4NC(=O)c3cn(C(C)(C)C)nn3)n2)cn1", "assay": "measured: PPARα/RXRα Activation", "system": "splenic B cells, mouse", "setting": "in vivo, 30 mg/kg, IgD-activated B cells", "scale": "reference: vehicle, positive = activation", "quantity": "pathway activation z-score", "result": 1.41}
{"SMILES": "N#Cc1ccc2c(c1)[C@H]1CCCN(C(=O)c3ccc4[nH]cnc4c3)[C@H]1C2", "assay": "measured: androstenedione", "system": "human male, Phase II trial", "setting": "oral, 80 mg once daily, last treatment, HPA axis, mean", "quantity": "plasma level", "result": "7.84 nmol/L"}
{"SMILES": "COc1ccc2c(c1)CN(C(=O)CCN1CCC(Cc3ccccc3)CC1)CC[S@@+]2[O-]", "system": "anaesthetised Beagle dogs", "setting": "intravenous, 0.1 mg/kg, pacing cycle length 360 ms", "quantity": "ventricular ERP prolongation", "result": "11.2%"}
{"SMILES": "CCCCCN1C[C@H](O)[C@@H](O)[C@H](O)[C@@H]1CO", "system": "Hexb-/- mouse, plasma", "setting": "300 mg/kg/day, unit not given", "scale": "reference: untreated", "quantity": "decreased sphingolipid species", "result": 21}
{"SMILES": "CCCCc1nc2c(N)nc3ccccc3c2n1Cc1ccc(N)cc1", "assay": "IFN-γ release, ELISA", "system": "PBMC, human", "setting": "24 h", "quantity": "concentration", "result": "~10 µM"}
{"SMILES": "C[C@H](CS)C(=O)N1CCC[C@H]1C(=O)O", "assay": "LC-MS/MS, measured: extracellular Leu-enkephalin", "system": "mouse striatal brain slices", "setting": "10 µM, 20 min, together with: 50 mM KCl", "quantity": "Leu-enkephalin concentration", "result": "660 pM and 1010 pM and 1120 pM and 561 pM and 736 pM"}
{"SMILES": "NC(=O)c1cnc2[nH]ccc2c1N[C@@H]1[C@@H]2CC3C[C@H]1C[C@@](O)(C3)C2", "assay": "CD8+ memory T cells, flow cytometry", "system": "Caucasian humans, peripheral blood", "setting": "60 mg single dose", "scale": "reference: baseline", "quantity": "percent change", "result": "1.25%"}
{"SMILES": "CN(C)C(=O)Oc1cccc([N+](C)(C)C)c1", "assay": "neuromuscular block reversal", "system": "rat", "setting": "dose not given, 17 (unit not given), together with: cisatracurium", "scale": "reference: T1 twitch", "quantity": "train-of-four ratio", "result": 98.1}
{"SMILES": "COc1cc(Nc2ncc3c(n2)-c2ccc(Cl)cc2C(c2c(F)cccc2OC)=NC3)ccc1C(=O)O", "system": "female NOD/scid mice, ALL-19 B-precursor ALL xenograft", "setting": "5.2 mg/kg, 5 days weekly, score scale 0 to 10", "scale": "direction not given", "quantity": "median response score", "result": 2}
{"SMILES": "N#Cc1ccc2c(-c3ccncc3)c(-c3ccc(F)cc3)nn2c1", "assay": "kinase binding, competitor, MIB/MS competition, measured: HSL1", "system": "Candida albicans cell lysate", "setting": "100 nM", "scale": "reference: DMSO", "quantity": "log2 fold change", "result": 0.453}
{"SMILES": "CN[C@@H]1COc2c(S(=O)(=O)NC(=O)Nc3c4c(cc5c3CCC5)CCC4)cnn2C1", "assay": "measured: IL-1β", "system": "human participants, whole blood ex vivo", "setting": "300 mg twice daily, multiple doses, 96 h, together with: LPS/ATP", "scale": "reference: baseline", "quantity": "inhibition", "result": "97.7%"}
{"SMILES": "COc1cc([C@H]2OC[C@H]3[C@@H]2CO[C@@H]3c2cc(OC)c(O)c(OC)c2)cc(OC)c1O", "assay": "Oil Red O", "system": "3T3-L1, mouse", "setting": "5 µM, day 8", "scale": "reference: vehicle", "quantity": "lipid accumulation", "result": "98.5 ± 10.3%"}
{"SMILES": "CCc1c(C)nc(-c2ccc(Cl)s2)nc1Nc1ccc(CC(=O)O)cc1", "system": "C57BL/6J mouse, high-fat diet MASH model, white adipose tissue", "setting": "intraperitoneal, 0.3 mg/kg daily, 60% fat diet for 12 weeks, dosed final four weeks", "scale": "reference: untreated", "quantity": "adipocyte diameter", "result": "no effect"}
{"note": "Some of these lines once more:"}
{"SMILES": "C[C@H](CS)C(=O)N1CCC[C@H]1C(=O)O", "assay": "LC-MS/MS, measured: extracellular Leu-enkephalin", "system": "mouse striatal brain slices", "setting": "10 µM, 20 min, together with: 50 mM KCl", "quantity": "Leu-enkephalin concentration", "result": "660 pM and 1010 pM and 1120 pM and 561 pM and 736 pM"}
